Measurements pooled from the literature.
Numbered parts are unrelated; each lists some results of a single study. Substitutions count along the parent as printed.

Set 1 — target: CCND3, cyclin fold, Cln2 fusion (human); method: yeast growth competition, sequencing; matrix: yeast; notes: weak parent motif; baseline: not given; direction: higher = stronger binding; quantity: normalised enrichment score
Starting sequence: CDC6 docking peptide (human); TLKGRRLVFDNQL; partner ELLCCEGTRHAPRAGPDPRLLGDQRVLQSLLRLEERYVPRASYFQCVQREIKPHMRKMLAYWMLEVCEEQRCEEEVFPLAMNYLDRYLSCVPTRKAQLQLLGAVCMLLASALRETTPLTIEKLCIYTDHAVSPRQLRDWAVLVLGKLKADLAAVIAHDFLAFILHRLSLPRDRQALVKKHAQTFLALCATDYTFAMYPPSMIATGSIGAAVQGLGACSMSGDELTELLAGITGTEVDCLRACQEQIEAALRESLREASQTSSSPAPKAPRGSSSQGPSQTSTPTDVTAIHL
TLKGRRLVLDNQL [F9L]: 0.298
TLKQRRLVFDNQL [G4Q]: 0.154
TLKGRGLVFDNQL [R6G]: 0.0277
TAKGRRLVFDNQL [L2A]: 0.0621
TLKGRRLVFDCQL [N11C]: 0.213
TLKGRRLVFDNLL [Q12L]: 0.165
TLKGRRLVFDNQA [L13A]: 0.139
TLKGRHLVFDNQL [R6H]: 0.123
TLKGRRLVFDNSL [Q12S]: 0.0833
TLKGRRSVFDNQL [L7S]: 0.0789
TLKGGRLVFDNQL [R5G]: 0.232
TLKGRRKVFDNQL [L7K]: 0.199
TLKGRREVFDNQL [L7E]: 0.119
TLKGRRLKFDNQL [V8K]: 0.109
TLKGRRLVFDNQP [L13P]: 0.169
TLKGRRLQFDNQL [V8Q]: 0.135
TLKGRRLVFDNQM [L13M]: 0.106

Set 2 — method: DHFR PCA, deep sequencing; matrix: yeast; together with: (+)-ABA 0.11 µM; baseline: wild-type fitted maximum; direction: higher = stronger binding; quantity: relative binding score
Target: ABI1, truncated, D143A, DHFR fusion (Arabidopsis thaliana)
Notes: methotrexate growth selection, single substitutions
Starting sequence: PYL1, truncated, DHFR fusion (Arabidopsis thaliana); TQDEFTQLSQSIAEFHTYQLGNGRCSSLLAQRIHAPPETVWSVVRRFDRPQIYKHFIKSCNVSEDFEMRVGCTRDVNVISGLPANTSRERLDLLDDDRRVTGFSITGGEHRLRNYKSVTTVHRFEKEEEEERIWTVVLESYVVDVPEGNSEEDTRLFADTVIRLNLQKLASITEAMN; partner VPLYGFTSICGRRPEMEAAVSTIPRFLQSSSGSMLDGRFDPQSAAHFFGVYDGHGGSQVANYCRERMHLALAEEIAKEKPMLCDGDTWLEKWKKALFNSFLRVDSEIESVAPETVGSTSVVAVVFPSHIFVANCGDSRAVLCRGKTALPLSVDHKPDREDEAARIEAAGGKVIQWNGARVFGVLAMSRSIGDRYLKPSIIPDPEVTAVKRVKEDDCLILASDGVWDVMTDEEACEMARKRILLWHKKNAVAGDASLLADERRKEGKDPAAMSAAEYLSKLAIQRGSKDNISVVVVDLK
E174N: 3.35%
C25R: -0.475%
R163T: 29%
T101L: 68.8%
R32N: 2.69%
G148Q: -2.15%
V145G: -4.92%
V70R: 4.82%
S171D: 45.5%
S9G: 22.9%
F47V: -5.85%
A84K: 11.1%
K168F: 9.06%
S140F: -9.04%

Set 3 — method: aptamer microarray, sandwich; molecule type: DNA with 2'F-ANA; matrix: in vitro; concentration: 200 nM; together with: Cy3 exosite-II aptamer, 400 nM; direction: higher = stronger binding; quantity: mean fluorescence intensity; sequence: GGTTGGTGTGGTTGG
Target: Prothrombin, mature alpha-thrombin (F2, Homo sapiens, UniProt P00734)
Notes: whole 15-mer aptamer, many near background
2'F-ANA at 1 4 6 8 10 11: 52 a.u.
2'F-ANA at 3 6 7 9 11 12 14: 510 a.u.
2'F-ANA at 1 3 4 5 8 9 10: 56.4 a.u.
2'F-ANA at 7 10 11 12 15: 207 a.u.
2'F-ANA at 2 5 7 8 10 12 14 15: 44.2 a.u.
2'F-ANA at 1 2 4 6 10 13 15: 54.7 a.u.
2'F-ANA at 2 5 6 14: 49.7 a.u.
2'F-ANA at 3 5 6 7 11 14: 57.8 a.u.
2'F-ANA at 1 3 8 10 13 15: 74.6 a.u.
2'F-ANA at 3 4 5 7 8 9 10 12 13 15: 54.7 a.u.
2'F-ANA at 1 2 3 4 5 6 10 11 13 15: 52.9 a.u.
2'F-ANA at 2 3 4 6 7 8 12 13: 637 a.u.
2'F-ANA at 1 2 3 6 7 9 12 15: 333 a.u.
2'F-ANA at 1 2 4 5 7 10 11 13 14: 51 a.u.
2'F-ANA at 2 3 4 5 6 8 11 12 14 15: 58.7 a.u.
2'F-ANA at 9 10 14 15: 107 a.u.
2'F-ANA at 1 2 3 4 5 7 8 9 10 11 12 13: 49.7 a.u.
2'F-ANA at 1 4 7 10 11 12 13: 51.3 a.u.
2'F-ANA at 3 4 5 8 9 10 12 13: 50.2 a.u.
2'F-ANA at 2 5 6 7 11 15: 68.8 a.u.
2'F-ANA at 1 5 6 8 12 13 15: 82.1 a.u.
2'F-ANA at 2 4 5 6 10 11: 51.5 a.u.

Set 4 — method: RNA Bind-n-Seq; molecule type: RNA; matrix: in vitro; concentration: 365 nM; baseline: no-protein control; direction: higher = stronger binding; quantity: RBNS enrichment (R)
Target: RNA binding protein fox-1 homolog 2, RRM domain, GST-SBP tag (RBFOX2, Homo sapiens, UniProt O43251-10, residues 100-194)
Notes: natural RNA segment, single round, ends assumed
Shared flanks, not repeated: GGGAGUUCUACAGUCCGACGAUC … UGGAAUUCUCGGGUGCCAA
Construct (chain): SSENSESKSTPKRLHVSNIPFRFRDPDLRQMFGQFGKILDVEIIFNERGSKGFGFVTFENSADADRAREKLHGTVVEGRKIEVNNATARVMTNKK
GAACAGGCAUUUUACACUAUGAAGACAUUCUUUUGAGAUUUUUAUUUCAGUUGCUAUAUCAUAAGCAUUUUUAAAGUUUCUUUUCUAAUUUUACAUUGUAUUAGAUUUUC: 1.57
CAGAGGAAAAACAAAAACAUCCCUGAAAAUAUACACACUCAUACACACACACGCACAGGGGAAUAAAAUAAGAAAAUCAUUUUCCUCACCAUAGACUUGAUCCCAUCCUU: 1.21
UUCCUGUUACCUCAUCUUCUUUUUUAAAGUACACCUGACUUGGGAGGGUACUGUCUCUAAUGUAUAUUUCUAGUGUUUACAGACACUAAGUGUGUAUAUGUAGUAACUAU: 0.426
AGAUGCUGCCCACAAAUGCUCCUGCUAUGUAACAGGUGCUCAAUAAAUGUAAAUGUAUAAGCACUCGAAUCAGCUUGCUGACAGGACCUUAUGGUCCAGGGUAGCUGGAG: 0.449
UCUGAUGCCAAGACAAAUAUUGGGAGCGAGCCUUCCUCACUAGCCAUGUCCAAAUAAUGAGCGUAUUUUCAUGUGGUCUUCACUGCAUUUGGUUUUGUUUCUGAUUUCAU: 0.445
GGGACAACCCAGGGCUUCGUGCAUGUCAGGCACACACUCCCAACUAAGCUACAUCCCCAGUCCCUCUUUCUAGAAAACAGAUAAGUCCAUGUUCAGGGGAGAAGAGGUCA: 1.71
GUUAACAAAGACAAACUGCUUCGAGUUUUCUGUUUUCGUAGUGAGCUUAAAAUGCAUGACAGGAUAGUUUCUCAUUCUUUGAAACAUUUUCAGUCUCAAACUUUCUGCAU: 0.447
GAGCAACUUACUUCCUUUCAUCUUACACAAUGAACCUUGUAAUUUAAUUAUGAUUUUCUCUUCAUACGAGCUGUUAGAAAGCUCAGCAUUAAAUUUGUGGCUCACCUCUA: 0.51
CAGCAUUUUCCUCUGCUUUGAAAGCCCCAGAAAUCAGUGUUGGCCAUGAUGACAACUACAGAAAAACCAGAGGCAGCUUCUUUGCCAAGACCUUUCAAAGCCAUUUUAGG: 0.681
AUUUUGGAAAUUGAAAAACUUAAUUUACAAGUGCUGGUACAUCUUUUUUCUUUUGUGGACCACAGGAAGGAAGAUUUAUUUUGAUAUUGAUACUUUAAAAGGACUUUAUA: 0.337
AACAGGAGUGCUUUACCCAAGUCAGUCAUGGAUAUGAUAUCACUGCUCUUUAUUUAAAAGUAAACUUUGGGCACAGGAACCAUAUGGGAACAUUCAGCUUGUUUAAAAAA: 0.921
AUAGAACUGUCUGCUCUCCACCUUUUCCUCACUCUACAUUUAGUCAUCACACUGAACAGGAUGUGGCCUGCUGACAGUGAGUAGCUGAAGUGCCUGUUUGGUAAGUAGGU: 0.351

Set 5 — method: protein binding microarray; molecule type: double-stranded DNA, one strand shown; matrix: in vitro; concentration: not given; baseline: not given; direction: higher = stronger binding; quantity: E-score
Target: Histone acetyltransferase KAT6A, winged helix 1, GST fusion (KAT6A, Homo sapiens, UniProt Q92794, residues 1-85)
Notes: 8-mer, flanks averaged, mean of 2 arrays, mostly near background
Construct (chain): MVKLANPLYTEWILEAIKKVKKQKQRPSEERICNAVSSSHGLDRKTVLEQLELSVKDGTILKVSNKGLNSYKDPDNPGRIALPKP
AGGTTAGG: -0.299
AATTACTA: -0.072
AATCAATG: 0.0216
ATTCAATA: -0.267
AGGAGTCC: -0.0401
GATTAGGC: -0.164
AACCCCGC: 0.317
GGGTCTGA: 0.0395
AAAAAAAT: -0.186
ATATGAAA: -0.203
AATTATCT: -0.0687
AAGCCTCA: -0.34
GATTTCAC: -0.0999
AAGAGGGG: -0.204
CGAAAACC: 0.137
GTAGTGTA: -0.0699

Further values, each from its own experiment
PhoQ, residues 284 288 289 292 302 303 SQSLSM — fold induction (PhoP, residues 12 14 15 18 19 LHHVQ (Escherichia coli, UniProt P23836); Sort-seq, refers to: YFP reporter; E. coli; PhoQ-PhoP variant library, together with: 10 µM Mg2+; baseline: high Mg2+ state, higher = stronger signaling): 0.856
